Experimental data of several laboratories.
Numbered parts are unrelated; each lists some results of a single study.

Block 1 — method: RNA Bind-n-Seq; form: RNA; sample: in vitro; concentration: not given; reference: input RNA pool; reading: higher = stronger binding
Target: RING finger protein unkempt homolog, zinc fingers 1-6, GST-SBP tag (UNK, Homo sapiens, UniProt Q9C0B0, residues 30-357)
Sequence of UniProt Q9C0B0 (30-357, looked up): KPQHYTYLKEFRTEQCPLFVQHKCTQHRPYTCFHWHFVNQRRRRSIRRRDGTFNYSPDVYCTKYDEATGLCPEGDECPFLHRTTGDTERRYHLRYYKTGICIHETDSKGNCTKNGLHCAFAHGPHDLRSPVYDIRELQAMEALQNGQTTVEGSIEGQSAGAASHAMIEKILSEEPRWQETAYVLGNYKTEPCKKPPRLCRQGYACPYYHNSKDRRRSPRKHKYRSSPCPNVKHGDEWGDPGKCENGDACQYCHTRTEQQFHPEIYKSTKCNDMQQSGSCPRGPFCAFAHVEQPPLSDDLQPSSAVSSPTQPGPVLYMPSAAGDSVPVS
Notes: RNA with constant flanks, human-mouse chimeric sites, ends assumed
Shared flanks, not repeated: GGGAGUUCUACAGUCCGACGAUC … CAACAGAGGAUUGAGCAUCA
Strand | bound/input enrichment
ACUCAGAGAUCCACCUCCCAAAGUGCUGGGAGUAAAGGUGUGGCCACCACACCUAACUUGAUGGAUAUUUUAUAAAGUUAAUAUGAAUCUUCCUGUUCUUCAUCCAGAGAAAGAUUUGUU | 0.163 ratio
GAUCCACAGUGGUCUGAGGAGCAACUCAUUGCUGCAAAAUUCUGUUUUGCUGGACUUGUUAUAGGGCAGACUGAAGUGGAUAUCAUGAGUCAUGCCACACAAGCUAUUUUUGAAAUUCUG | 0.181 ratio
CAGGGCAUCAUCUCUCGAGCUGUUAAACACCUGUUCAAGAGUAUUGAUGAGAAAAAGACCUCAGCGAUUAAAAAUGGGCUGCCCCCUCCUGAAUUCAAAGUGAAUGCCCAGUUCCUAGAG | 0.402 ratio
GGGGAGAAACCUUACGAGUGUGUGCAGUGUGGGAAAUCCUACAGUCAGAGCUCAAACCUCUUCAGACAUCAGAGAAGACACAAUGCAGAAAAACUUUUGAAUGUUGUGAAAGUUUAAGAA | 0.403 ratio
AAACAUCUGUCUUUAAGCAUUCCAAGCGAGAAUGCUGAAAUAGUCAUUGUUGCCCAUGUGCCUUCUGACUGAGCUUUAAUGCUGUUCCAUGUUACAUCUUUCCUUCACUCCAGAAUUGUU | 0.184 ratio
CAGACUGUGUCAUACUUUUUAGACAUUCACAUCAGACUUACAGAGCACCUGGCCACAUUCUAGGUUUGUGUUAUUUCUCAGCUAUGGGGGUAUGAUUAUGAGAACACUGCUUAACUAAUG | 0.762 ratio
GGAAGCACAUUAAUGGAGAUUGAUGGUGACAAAGGCAAGCAGGGCGGGCCCACCUACUACAUAGACACCAAUGCCCUCCGCGUGCCCAGGGAGAACAUGGAGGCCAUCUCACCACUCAAG | 0.261 ratio
AAUGUUCUUAAUAUUUUUGAAUAAAUGAAGCUAAAAUGUCUGCUUUUGGUACAACACGCAUUAAUAAAAGGUUAAGUUUUGUUUUCCACUGAAGUACUAUUUAACAUACAUCUCAGAAAC | 0.226 ratio
UCCCAAAUCCAGCAGCUAGAAGGAGCCUUGAGACAAAGCCUGGAAAUACAGGGAAGGCGAUAACAUUGUAAAUUGGUUUACAUUUUUUCCCCCUGUGGAUUUUUCUAGAGGUCAUAGUGC | 0.478 ratio
UUUGUAUUCAUGUUAAGCACGCGUGCUGGUGGUCUGGGCAUCAAUCUUGCAACUGCUGAUGUAGUCAUUUUAUAUGACUCAGAUUGGAAUCCGCAAGUUGAUCUUCAGGCUAUGGACCGU | 0.146 ratio
UACUGCUGCUUUCAACUUAAAUCACUGAGGCAUCUCUACUGUUCUGUGAGCAUCAGGAUUUUAGUGCUGUGUCACCACAUGAGAGUUCAGAAGCAGCCUUUCUGUGGAGGGUGGGAAUGA | 0.174 ratio

Block 2 — method: RNA Bind-n-Seq; form: RNA; sample: in vitro; concentration: 1 µM; notes: whole 134-nt RNA, ends assumed; with: 150 mM KCl; reference: input library; reading: higher = stronger binding
Target: Ras GTPase-activating protein-binding protein 1, C-terminal RGG region (G3BP1, Homo sapiens, UniProt Q13283)
Sequence of UniProt Q13283 (whole entry, looked up): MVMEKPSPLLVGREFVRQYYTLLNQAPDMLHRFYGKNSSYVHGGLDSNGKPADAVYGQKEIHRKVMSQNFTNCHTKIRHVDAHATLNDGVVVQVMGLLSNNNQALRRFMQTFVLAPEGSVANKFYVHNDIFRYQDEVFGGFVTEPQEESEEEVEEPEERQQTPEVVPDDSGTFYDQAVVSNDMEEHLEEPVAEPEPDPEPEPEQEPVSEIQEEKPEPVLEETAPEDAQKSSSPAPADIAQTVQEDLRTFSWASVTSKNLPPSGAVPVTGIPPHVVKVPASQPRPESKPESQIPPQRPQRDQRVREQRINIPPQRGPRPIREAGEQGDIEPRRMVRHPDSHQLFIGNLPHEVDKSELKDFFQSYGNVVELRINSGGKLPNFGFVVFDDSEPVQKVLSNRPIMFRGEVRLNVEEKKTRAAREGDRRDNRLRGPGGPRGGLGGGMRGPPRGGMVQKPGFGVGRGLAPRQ
Shared flanks, not repeated: GGGAGUUCUACAGUCCGACGAUC … UGGAAUUCUCGGGUGUCAAGG
Strand | log2 enrichment
CUCAAGUCCUGUGCUACACAUCGUAUGUACCGAAUCGGGGUGGGUGGGUGGGGAAAGUAUUAUGUUACGCCGUUCGGAUCUGCACUUCCA | 2.27
UAACUUUAGAGGAGGAUCUGAUGGAUAUGGCAGUGGACGUGGAUUUGGGGAGGGCUAUAAUGGGUAUGGAGGAGGACCUGGAGGUGGCAA | -0.0914
UGUGCUACACAUCGUAUGUACCGAAUCGGGGUUUUUUUGGGGAAAAAAAGGGGUUUUUGGGGAAAGUAUUAUGUUACGCCGUUCGGAUCU | 0.174
AAGUCCUGUGCUACACAUCGUAUGUACCGAAUCGGGUUUUGGGGUUUUGGGUUUUGGAAAGUAUUAUGUUACGCCGUUCGGAUCUGCACU | -0.797
AAGUCCUGUGCUACACAUCGUAUGUACCGAAUCGGGGUUUUGGGUUUUGGGUUUUGGAAAGUAUUAUGUUACGCCGUUCGGAUCUGCACU | -1.06
UGGGAGGGGGAUUUUGUUUAUUUUUUUAGCUCAUUUCCAGGGGUGGGAAUUUUUUUUUAAUAUGUGUCAUGAAUAAAGUUGUUUUUGAAA | 3.58
UGGGAGGUGGAUUUUGUUUAUUUUUUAAGCUCAUUUCCAGGGGUGGGAAUUUUUUUUUAAUAUGUGUCAUGAAUAAAGUUGUUUUUGAAA | 3.46
AGUCCUGUGCUACACAUCGUAUGUACCGAAUCGGGUUUUUGGUUUUUGGUUUUUGGGAAAGUAUUAUGUUACGCCGUUCGGAUCUGCACU | -1.77
UCCUGUGCUACACAUCGUAUGUACCGAAUCAAAUUUAAACCCCCCCAAAUUUUUUUAAAAAAGUAUUAUGUUACGCCGUUCGGAUCUGCA | -0.119
UUCCCUGUACCGGCAGAGUUCACAAACACAUUUGAAGAGGCUUUUUCUCAGGAUUCUUAACCUUCCCAAAGGAAGUCCCAUGGAUGGGUU | -1.68
UCAAGUCCUGUGCUACACAUCGUAUGUACCGAAUCGGAAAGGUGGUUUUUUUGGAAAGUAUUAUGUUACGCCGUUCGGAUCUGCACUUCC | -1.26
CUCAAGUCCUGUGCUACACAUCGUAUGUACCGAAUCGGGAAAGGGAGGGUGGGAAAGUAUUAUGUUACGCCGUUCGGAUCUGCACUUCCA | 1.94
UGCGCCAACCUAGGCUUUCUUCUUCCUCUCCUCUUUAUAGGCGGAGUCGAUCUCCCAAAAGGAGAAGGUAGGCCUUCAGUCAUUUGUGAU | -0.528
CCUCAAGUCCUGUGCUACACAUCGUAUGUACCGAAUCGGUUUGGUGGAAAGGAAAGUAUUAUGUUACGCCGUUCGGAUCUGCACUUCCAG | -0.605

Block 3 — method: protein binding microarray; form: double-stranded DNA, one strand shown; sample: in vitro; concentration: not given; reference: not given; reading: higher = stronger binding
Target: Histone acetyltransferase KAT6A, winged helix 1, GST fusion (KAT6A, Homo sapiens, UniProt Q92794, residues 1-85)
Notes: 8-mer, flanks averaged, mean of 2 arrays, mostly near background
Target sequence (chain): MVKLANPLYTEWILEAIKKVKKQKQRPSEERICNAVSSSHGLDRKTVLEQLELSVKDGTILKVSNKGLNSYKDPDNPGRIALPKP
Strand | E-score
CCTTCGGA | 0.055
CTAAATAA | -0.0404
CACTGTGA | -0.109
GGATCTAC | -0.205
AATCGAAT | -0.019
GTCACTAA | -0.225
CGGATAAC | 0.122
ATGACAGC | -0.192
AAAAGTGC | -0.0486
ATAGGCTC | -0.127
CGCGCAGA | 0.305
TGAATTCA | -0.286
ATTGAGGC | -0.0775

Single results of other studies
Substance | target | assay | test system | conditions | how to read | measurement | value
PhoQ, residues 284 288 289 292 302 303 NLSRDF | PhoP, residues 12 14 15 18 19 NQFFI (Escherichia coli, UniProt P23836) | Sort-seq, refers to: YFP reporter | E. coli | PhoQ-PhoP variant library, with: 10 µM Mg2+ | reference: high Mg2+ state, higher = stronger signaling | fold induction | 19.4

Excerpt of the above (block 2):
Strand | log2 enrichment
UUCCCUGUACCGGCAGAGUUCACAAACACAUUUGAAGAGGCUUUUUCUCAGGAUUCUUAACCUUCCCAAAGGAAGUCCCAUGGAUGGGUU | -1.68
AGUCCUGUGCUACACAUCGUAUGUACCGAAUCGGGUUUUUGGUUUUUGGUUUUUGGGAAAGUAUUAUGUUACGCCGUUCGGAUCUGCACU | -1.77
UGCGCCAACCUAGGCUUUCUUCUUCCUCUCCUCUUUAUAGGCGGAGUCGAUCUCCCAAAAGGAGAAGGUAGGCCUUCAGUCAUUUGUGAU | -0.528
UGGGAGGGGGAUUUUGUUUAUUUUUUUAGCUCAUUUCCAGGGGUGGGAAUUUUUUUUUAAUAUGUGUCAUGAAUAAAGUUGUUUUUGAAA | 3.58
